Assay results of several laboratories.
Compare with care: the assays were run in different laboratories. ± gives the spread as reported.
Sequence of UniProt P21397 (whole entry, looked up): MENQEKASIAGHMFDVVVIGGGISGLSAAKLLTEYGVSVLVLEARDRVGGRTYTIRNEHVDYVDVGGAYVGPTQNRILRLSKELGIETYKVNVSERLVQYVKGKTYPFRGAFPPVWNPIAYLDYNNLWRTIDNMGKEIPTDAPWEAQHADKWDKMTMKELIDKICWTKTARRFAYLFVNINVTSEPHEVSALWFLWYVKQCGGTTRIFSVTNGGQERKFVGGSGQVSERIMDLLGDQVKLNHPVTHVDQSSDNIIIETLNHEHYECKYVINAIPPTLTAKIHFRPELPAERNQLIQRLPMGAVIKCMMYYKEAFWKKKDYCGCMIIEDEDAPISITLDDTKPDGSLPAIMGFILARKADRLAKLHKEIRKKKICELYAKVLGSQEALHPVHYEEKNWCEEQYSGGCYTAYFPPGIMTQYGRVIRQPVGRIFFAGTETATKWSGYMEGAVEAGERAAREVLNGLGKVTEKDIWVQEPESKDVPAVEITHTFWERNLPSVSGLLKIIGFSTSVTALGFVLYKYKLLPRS
Sequence of UniProt P08684 (whole entry, looked up): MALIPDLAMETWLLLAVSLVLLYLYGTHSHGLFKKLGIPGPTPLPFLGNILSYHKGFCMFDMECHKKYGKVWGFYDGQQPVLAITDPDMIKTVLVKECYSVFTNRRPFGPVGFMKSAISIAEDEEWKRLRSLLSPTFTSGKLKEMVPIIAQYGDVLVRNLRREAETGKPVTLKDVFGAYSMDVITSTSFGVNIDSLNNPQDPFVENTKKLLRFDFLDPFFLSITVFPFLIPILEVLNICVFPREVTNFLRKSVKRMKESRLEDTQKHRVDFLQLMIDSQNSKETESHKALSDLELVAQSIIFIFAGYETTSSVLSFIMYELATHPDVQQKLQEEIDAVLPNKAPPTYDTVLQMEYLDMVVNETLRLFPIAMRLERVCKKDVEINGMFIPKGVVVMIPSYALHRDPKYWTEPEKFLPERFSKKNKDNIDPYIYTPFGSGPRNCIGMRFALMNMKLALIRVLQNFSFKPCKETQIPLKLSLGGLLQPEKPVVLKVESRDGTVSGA

Compound = CC[C@H]1[C@@H](O)[C@@H]2[C@H](CC[C@]3(C)[C@@H]([C@H](C)CCNC(=O)NS(=O)(=O)c4ccc(C(C)(C)C)cc4)CC[C@@H]23)[C@@]2(C)CC[C@@H](O)C[C@@H]12; tested on = Cytochrome P450 3A4 (CYP3A4, Homo sapiens, UniProt P08684); test system = human, plasma; setting = geometric mean, with: fluconazole; endpoint = Tlast; result = 120 h
Compound = NCc1cc2c(cc1F)C(=O)N(C1CCC(=O)NC1=O)C2 (centres unmarked); tested on = MAOA (Homo sapiens, UniProt P21397); test = substrate, LC-MS/MS; test system = recombinant enzyme; setting = 10 µM, 4 h, pH 7.4; endpoint = concentration; result = 8.6 µM
Compound = O=C(Nc1nc2cccc(-c3ccc(CN4CCS(=O)(=O)CC4)cc3)n2n1)C1CC1; test = measured: headache; test system = human rheumatoid arthritis patients; setting = oral, 30 mg once daily, 4 weeks, regardless of relatedness; endpoint = treatment-emergent adverse events; result = 11.8%
Compound = O=C(Nc1cc(F)c(F)c(F)c1)c1ccc(F)c(S(=O)(=O)NCc2ccc(B(O)O)cc2)c1; tested on = hepatitis B virus; test system = HepAD38; how to read = baseline: CC50 over EC50; endpoint = selectivity index; result = 16.6
Compound = Cc1cc(N)c2c(OCC(C)(C)C(=O)NC(C)C)cccc2n1; tested on = Salmonella typhimurium; test = reverse mutation, plate incorporation; test system = TA98; setting = 1000 µg/plate, without S9; endpoint = mean revertant colonies; result = 18 colonies/plate
Compound = CN1CCN(c2cnc3c(cc(C(=O)NCc4ccc(Cl)cc4)c(=O)n3CC(=O)N3CC(C)(F)C3)n2)C1=O; tested on = Epstein-Barr virus; test = qPCR; setting = single first test; how to read = baseline: CC50 over EC50; endpoint = selectivity index; result = 215
Compound = CC(C)(C(=O)N1CCOc2c(C#N)cncc2C1)C(F)F; test system = human, both sexes; setting = oral, 40 mg single dose; endpoint = subjects with headache TEAE; result = 0%
Compound = Cc1cc(Nc2ccc(S(F)(F)(F)(F)F)cc2)n2nc(C(C)(F)F)nc2n1; tested on = Plasmodium falciparum; test system = P. falciparum malaria patients; setting = oral, 400 mg; endpoint = patients with blurred vision; result = 7.7%
Compound = CC1(C)OB(c2cccc(CNS(=O)(=O)c3cc(C(=O)Nc4cc(F)c(F)c(F)c4)ccc3F)c2)OC1(C)C; tested on = hepatitis B virus; test system = HepAD38; how to read = baseline: CC50 over EC50; endpoint = selectivity index; result = 12.1
Compound = CC(C)n1c(Nc2cccnc2)nc2cnc(Nc3ccc(N4CCN(C)CC4)cc3)nc21; test = measured: antithrombin III antibodies elevated; test system = healthy human, male; setting = oral, dose not given, CTCAE grade 1-3; endpoint = subjects with TEAE; result = 19%
Compound = N#Cc1ccc2c(c1)[C@H]1CCCN(C(=O)c3ccc4[nH]cnc4c3)[C@H]1C2; test system = human; setting = 40 mg, day 15; how to read = baseline: baseline; endpoint = ACTH level change; result = 3.1 pmol/L
Compound = Nc1nnc(-c2cccc(Cl)c2Cl)c(N)n1; tested on = UGT1A, humanized; test = glucuronidation, Michaelis-Menten kinetics; test system = Tg-UGT1 mice, female, DMSO control group, pooled liver microsomes; setting = 30 min, pH 7.2; endpoint = Km; result = 200 ± 20 µM
Compound = CC[C@H](CO)N(CCN(N=O)[C@H](CC)CO)N=O; tested on = Salmonella typhimurium; test = plate incorporation; test system = TA1535, water; setting = 150 µg/plate, without S9; endpoint = revertant colonies per plate; result = 14.3 ± 8
Compound = CC1(C)CCC(c2ccc(Cl)cc2)=C(CN2CCN(c3ccc(C(=O)NS(=O)(=O)c4ccc(N[C@H](CCN5CCOCC5)CSc5ccccc5)c(S(=O)(=O)C(F)(F)F)c4)cc3)CC2)C1; tested on = mouse ileal enteroid monolayers; setting = 50 % saturated solubility, 2 h, basolateral fractions 1-10, with: oleic acid/monoolein micelles; endpoint = drug secreted with TRL; result = 15 ± 3.9%
